Measured values collected from several papers.
Protocols differ between the studies behind these lines. Values joined by “and” are separate records of one study, mostly repeats; a detail may differ. Numbers after ± are the reported error.
APP: Amyloid-beta precursor protein (APP, Homo sapiens, UniProt P05067)
Fibroblast growth factor 2 with pentraxin 3: Fibroblast growth factor 2, with pentraxin 3 (Homo sapiens, UniProt P09038)
ESR1: Estrogen receptor (ESR1, Homo sapiens, UniProt P03372)
CASP4: Caspase-4 (CASP4, Homo sapiens, UniProt P49662)
T1: FMN riboswitch G8A/G9A/G74A/G96A (Lactobacillus plantarum); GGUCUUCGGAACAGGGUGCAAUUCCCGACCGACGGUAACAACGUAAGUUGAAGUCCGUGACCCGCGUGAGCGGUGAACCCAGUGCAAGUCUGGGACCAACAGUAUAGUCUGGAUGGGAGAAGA

`CC[S+]([O-])c1nc(-c2cccc(OCc3ccccc3)c2)cc(C(F)(F)F)n1` (centres unmarked) has an Emax of 76 to 91% (Glucagon-like peptide 1 receptor (GLP1R, Homo sapiens, UniProt P43220); cAMP accumulation, agonist; HEK293T overexpressing GLP1R).
For `Nc1nc2c(ncn2[C@@H]2O[C@@H]3COP(=O)(O)O[C@H]3[C@H]2O)c(=O)[nH]1`, “relative maximal current” read 0.16 ± 0.08 (Cyclic nucleotide-gated channel alpha-2 (Cnga2, Rattus norvegicus, UniProt Q00195, C460W/del61-90/E583M); agonist, inside-out patch clamp; +50 mV; reference: compound over cAMP).
The EC25 of `O=Cc1c[nH]c2ccccc12` is reported as 110 µM (Aryl hydrocarbon receptor (AHR, Homo sapiens, UniProt P35869); reporter gene, agonist; HepG2 40/6 luciferase reporter; 4 h; reference: 10 nM TCDD).
The inhibition of `CCC[C@H](N)C(=O)N[C@H](C(=O)N[C@H](C(=O)N[C@@H](C)C(N)=O)[C@@H](C)CC)C(C)C` is reported as 51.9% (APP; amyloid aggregation, inhibitor, fluorescence; 4 µM, 24 h).
`Ac-ARACA-NH2 (N-acetyl, C-amide)` has an ID50 of over 3000 µM (Fibroblast growth factor 2 with pentraxin 3; binding to PTX3, competitor, surface plasmon resonance; peptide; with: 150 nM free FGF2).
The efficacy of `CCN(c1ccc(OC)cc1)S(=O)(=O)C1CC2OC1C(c1ccc(O)cc1)=C2c1ccc(O)cc1` (centres unmarked) is reported as 3 ± 1% (ESR1; reporter gene, antagonist; HepG2; with: estradiol 10 nM; reference: E2 response, negative is inverse agonism).
The remaining activity of `COc1cc2nc(N3CCN(C(=O)C4CCCO4)CC3)nc(N)c2cc1OC` (centres unmarked) is reported as 3.25% (CASP4; 33 µM, with: LEHD substrate; reference: solvent control).
`E. coli DnaG primase` gave a sedimentation coefficient of 5.1 S (single-stranded DNA-binding protein (Escherichia coli); analytical ultracentrifugation; 7-fold molar excess, pH 7.4, 20 °C).
With `COC(=O)CCC(C(=O)C=Cc1cc(F)c(O)c(F)c1)C(=O)C=Cc1cc(F)c(O)c(F)c1` (centres unmarked) the band density was 161 ± 30% (APP; Aβ aggregation, SDS-PAGE western blot, item: Aβ1-42 75-200 kDa band; 30 µM, 24 h, 37 °C, with: Aβ1-42 10 µM; reference: DMSO).
`Ac-YESTNPFTAK-NH2 (N-acetyl, C-amide)` gave a ΔG of -5.16 kcal/mol (EHD1 EH domain, mouse; ITC; peptide; pH 7.0, 20 °C, 0 mM KCl, first titration).
`C[C@]12CC[C@@H]3c4ccc(O)cc4C[C@@H](CCCCCCCCC[S+]([O-])CCCC(F)(F)C(F)(F)F)[C@H]3[C@@H]1CC[C@@H]2O` (some centres unmarked) gave an efficacy of -7 ± 1% (ESR1; reporter gene, antagonist; HepG2; with: estradiol 10 nM; reference: E2 response, negative is inverse agonism).
`Cc1oncc1C(=O)Nc1ccc(C(F)(F)F)cc1` has a remaining activity of 16.3% (CASP4; 33 µM, with: LEHD substrate; reference: solvent control).
The relative potency of `CSCC[C@H](NC(=O)NC1(c2ccccc2)CCN(Cc2cncn2Cc2ccc(-n3cc(COCCCCCCNC(=O)c4ccc(NC(=N)N)cc4)nn3)cc2)CC1)C(=O)O` is reported as about 230 (Geranylgeranyl transferase type I (Homo sapiens, UniProt P49354+P53609); enzyme activity, inhibitor, fluorescence; with: dansyl-K-Ras C-terminal peptide; reference: guanidyl-gallate derivative).
For `O=C1C=CCCC1`, “NAD(P)H oxidation rate” read “no effect” (Enoyl-ACP reductase (Thermus thermophilus, UniProt P83818); enzyme activity, substrate, steady-state turnover).
With `CSc1nc2c([nH]1)c(=S)n(C)c(=S)n2C` the remaining activity was 75% (Androgen receptor (AR, Homo sapiens, UniProt P10275); reporter gene, antagonist, PSA-luciferase; HeLa-A6; 10 µM, 24 h, with: 5 nM dihydrotestosterone; reference: maximal activity).
`CC[C@H](C)[C@H](NC(=O)[C@H](CC(C)C)NC(=O)[C@H](CC(C)C)NC(=O)CNC(=O)[C@H](Cc1ccc(O)cc1)NC(=O)[C@H](CCCNC(=N)N)NC(=O)[C@H](CO)NC(C)=O)C(=O)N[C@@H](CCCCN)C(=O)N[C@@H](C)C(=O)N[C@@H](Cc1ccccc1)C(=O)N[C@@H](CO)C(=O)N[C@@H](CCSC)C(=O)N[C@H](C(=O)N[C@@H](C)C(=O)N[C@@H](C)C(=O)N[C@@H](CCC(=O)O)C(=O)N[C@H](C(=O)N[C@@H](C)C(=O)N[C@@H](CCCNC(=N)N)C(=O)N[C@@H](CCCNC(=N)N)C(=O)N[C@H](C(=O)N[C@@H](CCCNC(=N)N)C(=O)N[C@@H](CCC(=O)O)C(=O)N[C@@H](Cc1ccccc1)C(=O)N[C@@H](CCCNC(=N)N)C(N)=O)[C@@H](C)O)[C@@H](C)O)[C@@H](C)O` gave an apparent ΔG2 of -13.6 ± 0.15 kcal/mol (calmodulin 1-80 sites I and II; calcium binding, Phe fluorescence titration; 12 µM, pH 7.4, 22 °C, with: 6 µM calmodulin).
`COc1cc(C=O)cc(OC)c1O` — result for “lowest inhibitory concentration”: at least 0.1 µM (UGT (rat); 4-MU glucuronidation, inhibitor; rat liver microsomes).
With `RDAAPLPRPGAVLKDFTV (LAGE-1 (111-128); sequence looked up)` the relative IC50 was over 7300 (HLA-DPB1*0401; peptide binding, biotinylated peptide competition; peptide; reference: peptide over reference peptide, lower = stronger binding).
The aggregation temperature of `O[C@H]1[C@H]2c3cc4c(cc3CN3CCC(=C[C@@H]1O)[C@H]23)OCO4` is reported as 47.8 °C (Genome polyprotein, NS5 (ZIKV, UniProt A0A024B7W1); cellular thermal shift, item: NS5 protein; Zika virus, Vero cell lysate; 20 µM).
`CQTA` — result for “farnesylation rate constant”: 0.23 ± 0.02 s⁻¹ (Protein farnesyltransferase (Rattus norvegicus, UniProt Q02293+Q04631); substrate, stopped-flow fluorescence; peptide; pH 7.8, 25 °C, single turnover).
The remaining activity of `O=C(O)c1ccccc1Nc1cccc(C(F)(F)F)c1` is reported as 23.4% (CASP4; 33 µM, with: LEHD substrate; reference: solvent control).
For `CNc1ncnc2c1ncn2[C@H]1C[C@H](OP(=O)(O)O)[C@@H](COP(=O)(O)O)O1`, “fluorescent ligand binding” read “no effect” (P2Y purinoceptor 6 (P2RY6, Homo sapiens, UniProt Q15077); competitor, flow cytometry; 1321N1 cells; 125 µM, 30 min preincubation, 37 °C, with: fluorescent ligand 100 nM).
`Ac-ARPCA-NH2 (N-acetyl, C-amide)` gave an ID50 of 120 µM (Fibroblast growth factor 2 with pentraxin 3; binding to PTX3, competitor, surface plasmon resonance; peptide; with: 150 nM free FGF2).
`O=C(N1CCCC[C@@H]1Cc1ccccc1)n1ccc(C(O)(c2ccc(F)cc2)c2ccc(F)cc2)n1` gave a kinact of 0.00133 s⁻¹ (Diacylglycerol lipase-alpha (Mus musculus, UniProt Q6WQJ1); enzyme activity, inhibitor).
With `O=S(=O)(O)c1cc(N=C=S)ccc1CCc1ccc(N=C=S)cc1S(=O)(=O)O` the ID50 was 0.19 µM and 0.26 µM and 0.21 µM and 0.13 µM (SLC4A1 (Homo sapiens, UniProt P02730); chloride exchange; human red blood cells; pH 7.2, 0 °C, no chloride gradient).
Under inhibition, `Cc1cccc(C)c1C(=O)OCC(=O)[C@H](CCCCN)NC(=O)[C@H](CCCN=C(N)N)NC(=O)OCc1ccccc1` is recorded as “inhibited” (Cathepsin B (CTSB, Homo sapiens, UniProt P07858); enzyme activity, inhibitor; neuroblastoma cells; 50 µM, 6 h, 37 °C, with: Z-Arg-Arg-AMC).
For `Cc1c(-c2cccc(NC(=O)c3ccc(F)c(F)c3)c2)nc2ncccn12`, the efficacy was 60.8% (GPR32 (Homo sapiens, UniProt O75388); β-arrestin recruitment, agonist, PathHunter; CHO cells expressing GPR32; concentration not given; reference: vehicle).
For `O=Cc1ccccc1`, the Km was 38.6 mM (aldehyde oxidase F10 (Pseudomonas sp. MX-058); substrate, peroxidase-coupled H2O2; pH 7.0, 30 °C, with: O2 co-substrate).
With `CC(C)[C@H](NC(=O)[C@H](CCCNC(=N)N)NC(=O)[C@@H](NC(=O)[C@H](CCC(N)=O)NC(=O)[C@H](CCC(N)=O)NC(=O)[C@H](NC(=O)[C@H](Cc1c[nH]c2ccccc12)NC(=O)[C@@H]1CCCN1C(=O)[C@@H]1CCCN1C(=O)[C@H](Cc1ccccc1)NC(=O)[C@H](CO)NC(=O)CNC(=O)[C@H](CCCNC(=N)N)NC(=O)[C@H](CCCNC(=N)N)NC(=O)[C@H](CCCNC(=N)N)NC(=O)[C@H](CCCNC(=N)N)NC(=O)[C@H](CCCNC(=N)N)NC(=O)[C@@H](N)CCCNC(=N)N)C(C)C)[C@@H](C)O)C(=O)O` the kon was 2.19e+06 M⁻¹ s⁻¹ (Disks large homolog 4, PDZ3 domain (Homo sapiens, UniProt P78352); binding, surface plasmon resonance; pH 7.5, 25 °C).
The ΔS of `Ac-GPSLNPFDEED-NH2 (N-acetyl, C-amide)` is reported as -11.4 cal/mol/K (EHD1 EH domain, mouse; ITC; peptide; pH 7.0, 20 °C, 0 mM KCl, first titration).
`CC[C@H](C)[C@H](NC(=O)[C@H](CCCCN)NC(=O)[C@H](CC(C)C)NC(=O)[C@H](CC(C)C)NC(=O)[C@@H]1CCCN1C(=O)[C@H](CC(C)C)NC(=O)[C@H](CCCCN)NC(=O)[C@@H]1CCCN1C(=O)[C@H](CCCNC(=N)N)NC(=O)[C@@H](NC(=O)[C@H](CCC(N)=O)NC(=O)[C@H](CC(N)=O)NC(C)=O)C(C)C)C(=O)N[C@@H](CC(C)C)C(=O)N[C@@H](Cc1c[nH]cn1)C(=O)N[C@@H](C)C(=O)N[C@@H](C)C(=O)NCC(=O)N[C@@H](C)C(=O)N[C@@H](CCC(N)=O)C(=O)N[C@@H](Cc1ccc(O)cc1)C(N)=O` has a koff of 30 ± 10 s⁻¹ (Protein S100-B (Homo sapiens, UniProt P04271); binding, NMR line shape, Kd from ITC; 35 °C, low salt).
For `CC[C@H](C)[C@H](NC(=O)[C@@H](NC(=O)[C@@H](N)C(C)C)C(C)C)C(=O)N[C@H](C(N)=O)C(C)C`, the inhibition was 6.9% (APP; amyloid aggregation, inhibitor, fluorescence; 4 µM, 24 h).
`CCCCC/C=C\S/C=C\CCCCCCCC(=O)O` gave a Kii of 115 ± 60 µM (Seed linoleate 13S-lipoxygenase-1 (Glycine max, UniProt P08170); inhibitor; pH 10.0, noncompetitive inhibition, with: linoleic acid).
`O=S(=O)(O)c1nc2ccccc2[nH]1` — result for “binding free energy”: -6.88 kcal/mol (racE (Bacillus subtilis, UniProt P94556); enzyme activity, inhibitor).
With `CC[C@H](C)[C@H](NC(=O)[C@H](CCC(N)=O)NC(=O)CNC(=O)[C@H](CC(C)C)NC(=O)[C@H](CCCCN)NC(=O)[C@@H]1CCCN1C(=O)[C@H](C)NC(=O)[C@H](CCCNC(=N)N)NC(=O)[C@@H](N)CCCCN)C(=O)NCC(=O)N[C@@H](CCCNC(=N)N)C(=O)N[C@@H](CCC(N)=O)C(=O)N[C@@H](CCCCN)C(=O)N[C@@H](C)C(=O)N[C@H](C(=O)N[C@@H](CC(=O)O)C(=O)N[C@H](C(=O)N[C@@H](CCC(=O)O)C(=O)N[C@@H](CC(=O)O)C(=O)O)[C@@H](C)CC)C(C)C` the alpha factor was 4.3 ± 1.7 (Calcium/calmodulin-dependent protein kinase type II subunit alpha (CAMK2A, Homo sapiens, UniProt Q9UQM7); enzyme activity, mixed non-competitive inhibitor, Morrison kinetics).
`DDESIYINIPDGE` — result for “kcat/Km fold change”: 1.4 fold (Tyrosine-protein kinase CSK (CSK, Homo sapiens, UniProt P41240); substrate; peptide; concentration not given; reference: Glu or Asp Y-1 parent peptide).
For `c1ccc2[nH]c(-c3cscn3)nc2c1`, the remaining activity was 13.5% (CASP4; 33 µM, with: LEHD substrate; reference: solvent control).
For `Clc1ccc2c(c1)CCc1cccnc1C2=C1CCN(CC2CCCC2)CC1`, “duration of complete antagonism” read at least 2 h (Histamine H1 receptor (HRH1, Homo sapiens, UniProt P35367); histamine-induced calcium response, antagonist; concentration not given, after washout of unbound compound, with: histamine).
The target occupancy of `C=CC(=O)Nc1cccc(Nc2nc(Nc3ccc(OCCOC)c(F)c3)ncc2F)c1` is reported as about 80% (Tyrosine-protein kinase BTK (Btk, Mus musculus, UniProt P35991); wild-type mice, spleen; drinking water, dose not given, 40 to 90 h; reference: water control).
`CSc1nc2c([nH]1)c(=O)n(C)c(=O)n2C` gave a remaining activity of 90% (Glucocorticoid receptor (Nr3c1, Rattus norvegicus, UniProt P06536); reporter gene, antagonist, MMTV-luciferase; T47D/A1-2; 10 µM, 24 h, with: 5 nM dexamethasone; reference: maximal activity).
For `Cc1cc2nc3c(=O)[nH]c(=O)nc-3n(CC=O)c2cc1C`, the Kd was 0.068 µM (T1, FMN riboswitch G8A/G9A/G74A/G96A (Lactobacillus plantarum); ITC; pH 7.5, 25 °C, NaCl 100 mM).
